Assay results from different studies.
Numbers after ± are the reported error.
ACHE: Acetylcholinesterase (ACHE, Homo sapiens, UniProt P22303)
Chain of UniProt P22303 (whole entry, looked up): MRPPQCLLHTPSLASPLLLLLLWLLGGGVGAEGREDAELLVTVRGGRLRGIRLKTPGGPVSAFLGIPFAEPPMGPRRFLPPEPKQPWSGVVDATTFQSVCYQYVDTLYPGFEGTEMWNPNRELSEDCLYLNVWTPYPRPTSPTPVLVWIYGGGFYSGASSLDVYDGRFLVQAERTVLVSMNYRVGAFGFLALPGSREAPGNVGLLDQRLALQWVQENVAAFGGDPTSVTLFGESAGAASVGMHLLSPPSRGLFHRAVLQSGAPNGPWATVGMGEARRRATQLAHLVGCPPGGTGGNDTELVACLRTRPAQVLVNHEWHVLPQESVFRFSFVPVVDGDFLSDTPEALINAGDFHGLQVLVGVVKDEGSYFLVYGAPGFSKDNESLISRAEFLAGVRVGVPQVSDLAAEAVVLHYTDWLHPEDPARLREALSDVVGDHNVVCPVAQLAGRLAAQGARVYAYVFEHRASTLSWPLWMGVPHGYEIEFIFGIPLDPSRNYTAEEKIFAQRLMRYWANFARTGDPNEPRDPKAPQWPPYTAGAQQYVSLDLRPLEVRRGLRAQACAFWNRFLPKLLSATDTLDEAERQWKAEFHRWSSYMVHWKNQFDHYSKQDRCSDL
HUNK: Hormonally up-regulated neu tumor-associated kinase (HUNK, Homo sapiens, UniProt P57058)
Chain of UniProt P57058 (whole entry, looked up): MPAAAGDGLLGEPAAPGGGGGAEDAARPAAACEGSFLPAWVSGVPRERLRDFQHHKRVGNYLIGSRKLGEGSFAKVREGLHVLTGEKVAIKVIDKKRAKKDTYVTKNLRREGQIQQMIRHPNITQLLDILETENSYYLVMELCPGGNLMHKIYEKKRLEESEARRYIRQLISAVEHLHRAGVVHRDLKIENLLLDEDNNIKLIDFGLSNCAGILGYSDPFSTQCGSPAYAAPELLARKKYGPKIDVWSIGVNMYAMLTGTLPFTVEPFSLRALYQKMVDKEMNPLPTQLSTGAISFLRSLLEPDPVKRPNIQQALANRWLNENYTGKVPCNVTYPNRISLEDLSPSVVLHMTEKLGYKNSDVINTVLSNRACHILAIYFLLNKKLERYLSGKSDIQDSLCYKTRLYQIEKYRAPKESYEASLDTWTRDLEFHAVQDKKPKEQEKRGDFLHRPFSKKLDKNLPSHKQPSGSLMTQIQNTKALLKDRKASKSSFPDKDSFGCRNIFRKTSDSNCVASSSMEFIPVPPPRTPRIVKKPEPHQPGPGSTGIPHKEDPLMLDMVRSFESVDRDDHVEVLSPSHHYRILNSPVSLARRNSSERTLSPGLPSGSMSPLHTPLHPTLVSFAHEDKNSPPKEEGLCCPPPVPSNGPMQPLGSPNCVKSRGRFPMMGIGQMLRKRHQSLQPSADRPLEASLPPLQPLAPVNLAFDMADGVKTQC
PFF0160c E182D: Dihydroorotate dehydrogenase (quinone), mitochondrial (PFF0160c, Plasmodium falciparum, UniProt Q08210, E182D)
Chain of UniProt O75582 (whole entry, looked up): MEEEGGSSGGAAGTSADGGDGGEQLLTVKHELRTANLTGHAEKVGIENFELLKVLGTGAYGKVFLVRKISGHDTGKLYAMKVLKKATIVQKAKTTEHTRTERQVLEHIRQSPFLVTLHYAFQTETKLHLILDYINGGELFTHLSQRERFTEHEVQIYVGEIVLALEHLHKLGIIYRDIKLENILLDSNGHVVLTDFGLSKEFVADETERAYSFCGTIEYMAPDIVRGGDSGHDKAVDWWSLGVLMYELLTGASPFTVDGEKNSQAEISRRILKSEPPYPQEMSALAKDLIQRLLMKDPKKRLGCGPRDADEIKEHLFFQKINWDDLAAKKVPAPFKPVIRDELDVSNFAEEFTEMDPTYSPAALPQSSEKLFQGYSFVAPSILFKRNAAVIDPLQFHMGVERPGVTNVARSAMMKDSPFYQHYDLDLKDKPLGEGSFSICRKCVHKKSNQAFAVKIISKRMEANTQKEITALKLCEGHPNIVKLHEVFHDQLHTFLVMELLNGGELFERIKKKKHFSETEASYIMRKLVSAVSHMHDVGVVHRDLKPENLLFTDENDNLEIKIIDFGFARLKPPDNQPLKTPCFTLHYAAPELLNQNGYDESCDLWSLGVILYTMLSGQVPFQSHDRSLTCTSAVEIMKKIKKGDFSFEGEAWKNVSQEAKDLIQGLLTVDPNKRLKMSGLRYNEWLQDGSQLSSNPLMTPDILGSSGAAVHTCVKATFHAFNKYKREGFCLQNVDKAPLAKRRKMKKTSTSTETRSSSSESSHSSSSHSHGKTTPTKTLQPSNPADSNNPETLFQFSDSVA
Chain of UniProt P02769 (whole entry, looked up): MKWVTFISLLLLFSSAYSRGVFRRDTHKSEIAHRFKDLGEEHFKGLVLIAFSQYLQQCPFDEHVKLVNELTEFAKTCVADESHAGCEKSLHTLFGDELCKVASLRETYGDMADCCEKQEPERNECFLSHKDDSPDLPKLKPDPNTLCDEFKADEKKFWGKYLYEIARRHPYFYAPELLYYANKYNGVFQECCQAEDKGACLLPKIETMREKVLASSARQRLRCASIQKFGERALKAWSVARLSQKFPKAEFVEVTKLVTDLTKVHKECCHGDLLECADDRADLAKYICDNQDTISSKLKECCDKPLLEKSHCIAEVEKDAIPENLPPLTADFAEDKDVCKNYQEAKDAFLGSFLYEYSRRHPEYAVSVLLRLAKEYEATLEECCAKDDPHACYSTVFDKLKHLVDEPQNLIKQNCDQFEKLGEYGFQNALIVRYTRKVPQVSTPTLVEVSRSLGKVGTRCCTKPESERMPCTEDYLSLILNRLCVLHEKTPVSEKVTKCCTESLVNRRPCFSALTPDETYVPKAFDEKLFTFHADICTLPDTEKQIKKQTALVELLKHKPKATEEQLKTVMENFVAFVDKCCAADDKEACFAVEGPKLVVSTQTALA
Chain of UniProt Q9BV23 (whole entry, looked up): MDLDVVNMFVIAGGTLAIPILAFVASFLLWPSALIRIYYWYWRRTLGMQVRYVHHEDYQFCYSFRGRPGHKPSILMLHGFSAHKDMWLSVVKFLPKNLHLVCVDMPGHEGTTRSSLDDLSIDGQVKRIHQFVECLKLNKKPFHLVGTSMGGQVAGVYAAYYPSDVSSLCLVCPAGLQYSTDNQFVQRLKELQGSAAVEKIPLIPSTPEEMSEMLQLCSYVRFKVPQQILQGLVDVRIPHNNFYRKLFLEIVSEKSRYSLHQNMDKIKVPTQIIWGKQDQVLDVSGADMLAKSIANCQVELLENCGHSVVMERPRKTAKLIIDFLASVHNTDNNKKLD
Chain of UniProt Q62666 (whole entry, looked up): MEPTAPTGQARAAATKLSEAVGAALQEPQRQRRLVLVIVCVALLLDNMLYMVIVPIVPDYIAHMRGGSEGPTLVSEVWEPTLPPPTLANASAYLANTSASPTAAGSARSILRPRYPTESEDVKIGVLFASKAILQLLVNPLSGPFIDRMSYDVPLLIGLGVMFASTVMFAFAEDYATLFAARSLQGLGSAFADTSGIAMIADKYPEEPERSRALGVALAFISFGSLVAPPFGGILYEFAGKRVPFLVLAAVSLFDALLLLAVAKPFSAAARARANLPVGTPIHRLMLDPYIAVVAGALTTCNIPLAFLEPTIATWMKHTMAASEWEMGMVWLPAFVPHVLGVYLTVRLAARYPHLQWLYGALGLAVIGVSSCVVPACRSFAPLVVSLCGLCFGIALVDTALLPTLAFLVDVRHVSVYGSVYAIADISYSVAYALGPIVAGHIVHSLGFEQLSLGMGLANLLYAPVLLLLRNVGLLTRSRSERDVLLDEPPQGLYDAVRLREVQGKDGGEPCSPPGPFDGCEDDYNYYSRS
Chain of UniProt P00942 (whole entry, unmodified, looked up): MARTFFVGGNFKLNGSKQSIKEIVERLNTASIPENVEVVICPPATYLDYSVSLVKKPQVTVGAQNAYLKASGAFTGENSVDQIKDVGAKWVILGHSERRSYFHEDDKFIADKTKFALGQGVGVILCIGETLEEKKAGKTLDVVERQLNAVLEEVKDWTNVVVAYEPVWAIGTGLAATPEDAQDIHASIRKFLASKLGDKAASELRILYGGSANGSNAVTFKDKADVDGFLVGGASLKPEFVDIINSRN
Chain of UniProt Q8N752 (whole entry, looked up): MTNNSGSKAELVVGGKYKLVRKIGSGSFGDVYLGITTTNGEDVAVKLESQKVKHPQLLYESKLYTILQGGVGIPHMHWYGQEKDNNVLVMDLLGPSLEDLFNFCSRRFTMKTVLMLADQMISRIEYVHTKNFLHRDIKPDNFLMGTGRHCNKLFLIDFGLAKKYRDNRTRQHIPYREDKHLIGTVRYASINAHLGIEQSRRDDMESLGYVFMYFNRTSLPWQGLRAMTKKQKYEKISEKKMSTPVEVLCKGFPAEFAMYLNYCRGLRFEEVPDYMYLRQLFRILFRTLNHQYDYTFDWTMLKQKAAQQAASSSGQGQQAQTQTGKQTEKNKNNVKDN
Chain of UniProt Q62351 (whole entry, looked up): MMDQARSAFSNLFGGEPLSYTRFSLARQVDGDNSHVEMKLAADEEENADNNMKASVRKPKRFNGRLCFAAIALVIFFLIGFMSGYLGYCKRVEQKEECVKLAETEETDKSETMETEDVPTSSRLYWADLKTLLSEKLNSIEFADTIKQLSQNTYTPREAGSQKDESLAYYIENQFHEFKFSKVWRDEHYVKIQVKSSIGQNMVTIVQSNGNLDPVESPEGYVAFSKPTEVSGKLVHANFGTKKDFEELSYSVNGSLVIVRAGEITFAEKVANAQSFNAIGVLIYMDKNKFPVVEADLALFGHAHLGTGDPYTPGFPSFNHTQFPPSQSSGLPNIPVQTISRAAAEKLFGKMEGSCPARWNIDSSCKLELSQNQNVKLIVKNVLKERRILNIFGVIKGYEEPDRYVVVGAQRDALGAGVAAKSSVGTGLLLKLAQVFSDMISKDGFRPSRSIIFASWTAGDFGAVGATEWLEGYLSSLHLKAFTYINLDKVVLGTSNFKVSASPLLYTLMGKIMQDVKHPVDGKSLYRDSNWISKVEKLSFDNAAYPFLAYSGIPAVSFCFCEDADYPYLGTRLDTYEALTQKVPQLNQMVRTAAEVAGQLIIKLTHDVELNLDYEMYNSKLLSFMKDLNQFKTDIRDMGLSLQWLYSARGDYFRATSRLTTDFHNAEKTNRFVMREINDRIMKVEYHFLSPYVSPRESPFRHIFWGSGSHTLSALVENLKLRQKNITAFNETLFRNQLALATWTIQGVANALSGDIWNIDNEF

For `CC(=O)O[C@H]1C[C@@H]2CC[C@@H]3[C@H](CC[C@@]4(C)[C@H]3C[C@H]([N+]3(C)CCCCC3)[C@@H]4OC(C)=O)[C@@]2(C)C[C@@H]1[N+]1(C)CCCCC1`, activity class read “inactive” (ACHE; biochemical; concentration not given).
With `COC(=O)[C@@]1(O)C[C@H]2O[C@]1(C)n1c3ccccc3c3c4c(c5c6ccccc6n2c5c31)C(=O)NC4` the remaining activity was 113% (MAPK3 (Homo sapiens, UniProt P27361); ADP-Glo; 24.6 µM, with: substrate MBP).
`C[N+](C)(C)[C@@H](Cc1c[nH]c(=S)[nH]1)C(=O)[O-]` has a ΔS of 12.8 ± 3.4 cal/mol/K (Ergothioneine transport permease/ergothioneine binding protein EgtU, substrate-binding domain (egtU, Helicobacter pylori, UniProt B5Z7I3); ITC; 30 °C, substrate-binding domain).
The remaining binding of `COc1ncccc1-c1cnn2ccc(N3CCN(C(=O)OC(C)C)CC3)nc12` is reported as 67% (Ribosomal protein S6 kinase alpha-5, C-terminal kinase domain (RPS6KA5, Homo sapiens, UniProt O75582); KINOMEscan binding; 1 µM; relative to: untreated control).
The activation of `CN1CCN(c2cc(-c3ccncc3)c(-c3ccc4ccccc4c3)nn2)CC1` is reported as -1.7% (NMUR2 (Homo sapiens, UniProt Q9GZQ4); agonist, FLIPR; 12.5 µM).
The ΔG of `CC(=O)N[C@H](C(=O)N1C[C@H](O)C[C@H]1C(=O)NCc1ccc(-c2scnc2C)cc1)C(C)(C)SCCCCCCNC(=O)C[C@@H]1N=C(c2ccc(Cl)cc2)c2c(sc(C)c2C)-n2c(C)nnc21` is reported as -10.18 ± 0.06 kcal/mol (Bromodomain-containing protein 2, BD1 (BRD2, Homo sapiens, UniProt P25440, K107A/Q101K/V106E); ITC; 25 °C, BD1 KEA mutant, binary).
`C[N+]1(CCF)[C@@H]2CC[C@H]1C[C@@H](OC(=O)C(O)(c1ccccc1)c1ccccc1)C2` (stereo partly shown): activity class “inactive” (ACHE; biochemical; concentration not given).
For `CC[C@H](CO)Nc1nc(NCc2ccc(-c3ccccn3)cc2)c2ncn(C(C)C)c2n1`, the binding score was 2.7 (CSNK1A1L (Homo sapiens, UniProt Q8N752); KINOMEscan competition binding; 10 µM, primary screen; direction not given).
`O=C(Nc1cccnn1)N1CCC(=Cc2cccc(Oc3ccc(C(F)(F)F)cn3)c2)CC1` gave an inhibition of 3% (KATP channel, hamster; binding; 50 µM, with: [3H]glyburide).
For `C[C@H]1CN(c2n[nH]c3nc(N[C@H]4CC[C@H](NS(=O)(=O)CCC(F)(F)F)CC4)ncc23)CCO1`, the relative abundance was 1.11 (DAPK3 (Homo sapiens, UniProt O43293); inhibitor, Kinobeads competition profiling; 20 µM; relative to: vehicle).
`CN(CC(=O)O)C(=N)NP(=O)(O)O` gave a kcat of 0.0005 ± 0.0002 s⁻¹ (CKMT1A (Homo sapiens, UniProt P12532, E265Q); substrate, Kinase-Glo luminescence; pH 7.0, reverse reaction, E227Q mutant, with: second substrate in excess).
The Ki ratio of `O=C(O)COP(=O)(O)O` is reported as 7.5 (TPI1 (Saccharomyces cerevisiae, UniProt P00942, Y208T); enzyme activity, competitive inhibitor, GPDH/NADH-coupled; pH 8.3, 25 °C, ionic strength 0.1 NaCl, with: glyceraldehyde 3-phosphate substrate; relative to: mutant over wild type).
`COc1ccc(N2C(=O)N(c3c(C)cccc3Cl)Cc3cnc(Nc4ccc(C5CCN(C)CC5)cc4OC)nc32)nc1` gave an inhibition of 10% (RPS6KA5 (Homo sapiens, UniProt O75582); kinase activity, inhibitor; 0.5 µM, MSK1).
The remaining binding of `[2H]c1c([2H])c([C@]2([2H])CCCN2C(=O)C(C)(C)Oc2ccc3cn[nH]c3c2)c([2H])c([2H])c1C([2H])([2H])[2H]` is reported as 77% (COQ8B (Homo sapiens, UniProt Q96D53); KINOMEscan; 1 µM; relative to: DMSO control).
With `Nc1ncc(-c2nc(N3CCOCC3)nc(N3CCOCC3)n2)c(C(F)F)n1` the remaining binding was 78% (HUNK; KINOMEscan; 10 µM).
With `O=c1c2ccccc2oc2cc(OCCCCc3ccccc3)ccc12` the reaction velocity was 0.0011 a.u. (ache (Electrophorus electricus, UniProt O42275); enzyme activity; 0.36 µM, with: substrate 0.86 mM; higher = faster reaction).
Under “maximal fold induction”, `Clc1cc2c(cc1Cl)Oc1cc(Cl)c(Cl)cc1O2` is recorded as 2.59 ± 0.13 (Uncharacterized protein (Takifugu rubripes, UniProt Q4JHL2); reporter gene, agonist, dual-luciferase; COS-7; 24 h; relative to: top over bottom).
For `COc1cc(Nc2ncc(F)c(Nc3ccc4c(n3)NC(=O)C(C)(C)O4)n2)cc(OC)c1OC`, the inhibition was 0% (HUNK; KINOMEscan; 10 µM).
The IC50 ratio of `Cc1cc(Nc2ccc(Cl)c(Cl)c2)n2nc(C)nc2n1` is reported as 9.6 (PFF0160c E182D; enzyme activity, DCIP colorimetric; relative to: E182D mutant over wild type).
For `COc1ccc(Nc2nn3c(-c4ccccc4)ccnc3c2C(=O)Nc2ccc(Cl)cc2)cc1`, the band share was 50.5% (α-amylase isoenzymes; native PAGE densitometry, item: abnormal band; 1 mg/mL).
Under “genistein glucuronide formation”, `COc1ccc2c3c([nH]c2c1)[C@H](CC(C)C)N1C(=O)[C@H](CCC(=O)OC(C)(C)C)NC(=O)[C@@H]1C3` is recorded as “decreased” (UGT1A1 (Homo sapiens, UniProt P22309); glucuronidation, inhibitor; cell lysate; 5 µM, with: genistein).
`O=C(c1ccc(Cl)cc1)N1CCN2C(=O)N(OC(=O)N3CCOc4ccccc43)C(=O)C2C1` (stereo not shown) gave a median ratio of 0.46 (ABHD6 (Homo sapiens, UniProt Q9BV23); enzyme activity, inhibitor, MS-based ABPP; SW-620 in situ; 10 µM, 2 h, 37 °C; relative to: compound over DMSO, lower = stronger inhibition).
`CC(NC(=O)c1ccc(-n2cnc3ccccc32)cc1)c1ccc(S(N)(=O)=O)cc1` (stereo not shown) gave an IC50 ratio of 0.5 (PFF0160c E182D; enzyme activity, DCIP colorimetric; relative to: E182D mutant over wild type).
The rate constant of `Nc1ncnc2c1ncn2[C@@H]1O[C@H](COP(=O)(O)OP(=O)(O)OP(=O)(O)O)[C@@H](O)[C@H]1O` is reported as 15.5 s⁻¹ (dnaK (Escherichia coli, UniProt P0A6Y8, E213C/T22C); conformational change, inducer, stopped-flow fluorescence quenching; linker insertion, slow phase).
Under “increase in binding signal”, `CCCCCCCCCCC[C@@H](C[C@@H]1OC(=O)[C@H]1CCCCCC)OC(=O)[C@H](CC(C)C)NC=O` is recorded as > 50% (Gag polyprotein, nucleocapsid protein p7 (gag, Human immunodeficiency virus type 1 group M subtype B, UniProt P04591); AlphaScreen; 45 µM, with: U3 RNA; relative to: DMSO).
For `O=C(O)Cc1c[nH]cn1`, “normalised MST signal” read 0.37 (SLC6A6 (Homo sapiens, UniProt P31641, Y138A); binding, microscale thermophoresis; 125 µM, room temperature, with: 50 nM labelled protein; higher = more binding).
`COc1cc(N)c(Cl)cc1C(=O)NC1CN2CCC1CC2` (stereo not shown) — result for “log2 fold change”: 0.052 (Opsin-5 (OPN5, Homo sapiens, UniProt Q6U736); β-arrestin recruitment, TANGO luminescence, item: OPN5; concentration not given; relative to: basal luminescence).
Under “surface TFRC expression”, `CC[C@@H](C)[C@@H](NC(=O)[C@@H](Cc1ccc(O)cc1)NC(=O)[C@H]1CCCN1C(=O)[C@@H](CCCNC(=N)N)NC(=O)[C@H](N)Cc1c[nH]cn1)C(=O)N[C@H](C)C(=O)N[C@H](Cc1c[nH]cn1)C(=O)N[C@H](CCCNC(=N)N)C(=O)N[C@H](CCCCNC(=O)c1cccc(S(=O)(=O)F)c1)C(=O)N[C@H](Cc1ccc(O)cc1)C(=O)N[C@H](CO)C(=O)N[C@H](Cc1ccccc1)C(N)=O` is recorded as 0.916 (Transferrin receptor protein 1 (Tfrc, Mus musculus, UniProt Q62351); flow cytometry; MC-38; 24 h, unit not given; relative to: 0 h).
With `Oc1cc(Cl)cc(-c2cccc(Cl)c2)c1` the IC25 was 9 µM (AHR (Homo sapiens, UniProt P35869); reporter gene, antagonist; AZ-AHR cells; 24 h, with: TCDD 4.5 nM).
`O=C(O)C(F)(F)C(F)(F)C(F)(F)C(F)(F)C(F)(F)C(F)(F)C(F)(F)F` gave a Jmax of 1490 ± 543 pmol/min/mg protein (SLCO2B1 (Homo sapiens, UniProt O94956); substrate, uptake; CHO stably expressing SLCO2B1; 1 min, 37 °C).
`COc1ccccc1Cn1ccnc1SCC(=O)Nc1cc(C(F)(F)F)ccc1Cl` has an IC50 ratio of 6.6 (PFF0160c E182D; enzyme activity, DCIP colorimetric; relative to: E182D mutant over wild type).
`Oc1ccc2ccc3cccc4ccc1c2c34` gave a fold change of 1.5 (Aryl hydrocarbon receptor (Danio rerio, UniProt Q9YGV3); reporter gene, agonist, luciferase reporter; ZF-4; 41.15 µM; relative to: vehicle control).
`OC1Cc2ccccc2CC1N1CCC2(CC1)C(Br)=Cc1ccccc12` (racemic) gave a selectivity ratio of 440 (Vesicular acetylcholine transporter (Rattus norvegicus, UniProt Q62666); rat liver (sigma2); relative to: Ki sigma2 over Ki VAChT).
`Cc1cc(Nc2ccc(C)c(Cl)c2)n2nc(C(F)(F)F)nc2n1` gave an IC50 ratio of 5.4 (PFF0160c E182D; enzyme activity, DCIP colorimetric; relative to: E182D mutant over wild type).
The fold change of `CN(C(=O)n1cnc(-c2ccc[n+]([O-])c2)c1)C1CCCCC1` is reported as -2.1 (androgen-induced gene 1 protein (Rattus norvegicus, UniProt F7EZV5); enzyme activity, ABPP; rat, brain; oral, 30 mg/kg/day, 28 days; relative to: vehicle).
The IC50 ratio of `COCc1ccccc1C(=O)NCCOc1cc(C)cc(C)c1` is reported as 0.4 (PFF0160c E182D; enzyme activity, DCIP colorimetric; relative to: E182D mutant over wild type).
`COc1cc(-c2[o+]c3cc(O)cc(O)c3cc2O[C@@H]2O[C@H](CO)[C@@H](O)[C@H](O)[C@H]2O)cc(OC)c1O` has a binding entropy of 0.11 kJ/(mol·K) (Albumin (ALB, Bos taurus, UniProt P02769); fluorescence quenching; concentration not given).

Excerpt of the above:
Under “genistein glucuronide formation”, `COc1ccc2c3c([nH]c2c1)[C@H](CC(C)C)N1C(=O)[C@H](CCC(=O)OC(C)(C)C)NC(=O)[C@@H]1C3` is recorded as “decreased” (UGT1A1 (Homo sapiens, UniProt P22309); glucuronidation, inhibitor; cell lysate; 5 µM, with: genistein).
`O=C(c1ccc(Cl)cc1)N1CCN2C(=O)N(OC(=O)N3CCOc4ccccc43)C(=O)C2C1` (stereo not shown) gave a median ratio of 0.46 (ABHD6 (Homo sapiens, UniProt Q9BV23); enzyme activity, inhibitor, MS-based ABPP; SW-620 in situ; 10 µM, 2 h, 37 °C; relative to: compound over DMSO, lower = stronger inhibition).
`CC(NC(=O)c1ccc(-n2cnc3ccccc32)cc1)c1ccc(S(N)(=O)=O)cc1` (stereo not shown) gave an IC50 ratio of 0.5 (PFF0160c E182D; enzyme activity, DCIP colorimetric; relative to: E182D mutant over wild type).
